Experimental data from different studies.
A part holds a random share of what one study measured.

Sample 1
Target: Replicase polyprotein 1ab, polymerase (rep, Severe acute respiratory syndrome coronavirus 2, UniProt P0DTD1)
Effect on: enzyme activity
Action: inhibitor
Concentration: 20 µM
Measurement: inhibition
O=c1cc(N2CCOCC2)oc2c(-c3ccccc3)cccc12: 7.85%
CN1C(=O)CC(c2ccccc2)C1=O (centres unmarked): -0.71%
N#Cc1ccc(C(c2ccc(C#N)cc2)n2cncn2)cc1: -2.66%
COC[C@H](NC(=O)c1cnc(C)s1)C(=O)N[C@@H](COC)C(=O)N[C@@H](Cc1ccccc1)C(=O)[C@@]1(C)CO1: -7.24%
CC(=O)OCC(=O)[C@H]1CC[C@H]2[C@@H]3CCC4=CC(=O)CC[C@]4(C)[C@H]3CC[C@]12C: -2.04%
CC(=O)NCCCS(=O)(=O)O: -3.43%
Cc1nccn1CCC(C(N)=O)(c1ccccc1)c1ccccc1: -21.1%
CN(C)CCn1cc(S(=O)(=O)c2cccc(F)c2)c2cccnc21: 1.09%
CC(=O)OCC(=O)[C@@]1(O)CC[C@H]2[C@@H]3CCC4=CC(=O)C=C[C@]4(C)[C@@]3(F)[C@@H](O)C[C@@]21C: 3.86%
N[C@@H](CCC(=O)N[C@@H](CS)C(=O)NCC(=O)O)C(=O)O: -0.86%
COc1cc2c(cc1OC)[C@@H](Cc1cc(OC)c(OC)c(OC)c1)[N+](C)(CCCOC(=O)CC/C=C/CCC(=O)OCCC[N+]1(C)CCc3cc(OC)c(OC)cc3[C@H]1Cc1cc(OC)c(OC)c(OC)c1)CC2 (some centres unmarked): -0.68%
OC[C@H]1NC[C@@H](O)[C@@H](O)[C@@H]1O: 1.9%
NC(=O)c1cccc(-c2cccc(OC(=O)NC3CCCCC3)c2)c1: 0.13%
CCN(CC)CC1CCCCN1CC(=O)N1c2ccccc2C(=O)Nc2cccnc21 (centres unmarked): 2.62%
CN(C)C(=O)n1nnnc1Cc1ccc(-c2ccccc2)cc1: -3.38%
Cc1ccc([N+](=O)[O-])cc1S(=O)(=O)N(C)/N=C/c1cnc2ccc(Br)cn12: -7.88%
NS(=O)(=O)NCCNc1nonc1/C(=N/O)Nc1ccc(F)c(Br)c1: 1.64%
CNC(=O)c1c(F)cccc1Nc1nc(Nc2cc3c(ccn3C(=O)CN(C)C)cc2OC)nc2[nH]ccc12: 2.78%
N#Cc1c(Oc2ccc(F)c(NC(=O)Cc3cccc(C(F)(F)F)c3)c2)ccc2nc(NC(=O)C3CC3)sc12: -1.55%
COc1cc(C[C@@H]2NCCc3cc(O)c(O)cc32)cc(OC)c1OC: 2.53%
CCCn1c(=O)c2[nH]c(-c3cnn(Cc4cccc(C(F)(F)F)c4)c3)nc2n(CC)c1=O: 1.05%
c1ccc2c(c1)CCCC2C1=NCCN1 (centres unmarked): 23.3%
CCCCCCCCCC(=O)OCCN1CCN(CCCN2c3ccccc3Sc3ccc(C(F)(F)F)cc32)CC1: -4.94%
CC1(C)O[C@@H]2C[C@H]3[C@@H]4CCC5=CC(=O)C=C[C@]5(C)[C@@]4(F)[C@@H](O)C[C@]3(C)[C@]2(C(=O)CO)O1: 22.6%
CCn1c(-c2nonc2N)nc2cncc(C(=O)N3CC[C@H](N)C3)c21: 5.01%

Sample 2
Cell line: HEK-293T/ACE2
Concentration: 10 µM
Time: 16 h
Reference: vehicle
Measurement: viability
CN(C/C=C/C#CC(C)(C)C)Cc1cccc2ccccc12: 97.1%
COc1ccc(C(=O)CC(=O)c2ccc(C(C)(C)C)cc2)cc1: 101%
O=C1O[C@H](CO)[C@@H](O)[C@H](O)[C@H]1O: 103%

Sample 3
Target: PABPC1L2, full length, GST fusion (mouse, UniProt A0ABA7IW68)
Method: RNAcompete
Molecule type: RNA
Sample: in vitro
Concentration: 20 nM
Setting: 7-mer, probes averaged, single round
Reference: mean of 7-mers
Direction: higher = stronger binding
Measurement: 7-mer Z-score
Target sequence (chain): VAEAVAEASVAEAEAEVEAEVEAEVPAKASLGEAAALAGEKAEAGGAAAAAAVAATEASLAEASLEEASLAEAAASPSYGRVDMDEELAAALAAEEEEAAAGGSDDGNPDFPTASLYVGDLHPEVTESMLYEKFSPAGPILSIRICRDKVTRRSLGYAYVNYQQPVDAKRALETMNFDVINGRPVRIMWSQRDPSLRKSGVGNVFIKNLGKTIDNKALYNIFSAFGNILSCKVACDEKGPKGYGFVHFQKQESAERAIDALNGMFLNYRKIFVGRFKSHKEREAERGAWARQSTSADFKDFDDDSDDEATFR
GUGAUAG: -0.021
ACUGAGU: -0.106
CACCGGC: -0.313
GAAUUCC: -0.255
GGGUGCC: 0.017
AGGGUAG: 0.425
CUGGCCU: -0.213
AACCGAU: 0.0225

Sample 4
Target: RING finger protein unkempt homolog, zinc fingers 1-6, GST-SBP tag (UNK, Homo sapiens, UniProt Q9C0B0, residues 30-357)
Sequence of UniProt Q9C0B0 (30-357, looked up): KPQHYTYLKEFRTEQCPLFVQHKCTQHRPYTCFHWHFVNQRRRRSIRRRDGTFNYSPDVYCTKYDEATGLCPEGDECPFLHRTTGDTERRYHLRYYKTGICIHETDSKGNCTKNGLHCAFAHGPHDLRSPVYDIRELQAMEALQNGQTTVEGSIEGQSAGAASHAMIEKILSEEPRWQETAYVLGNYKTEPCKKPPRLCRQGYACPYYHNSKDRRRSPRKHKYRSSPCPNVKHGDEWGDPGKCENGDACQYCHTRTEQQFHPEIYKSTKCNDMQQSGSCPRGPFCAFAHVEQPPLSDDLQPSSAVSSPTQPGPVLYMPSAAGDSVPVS
Method: RNA Bind-n-Seq
Molecule type: RNA
Sample: in vitro
Concentration: not given
Setting: RNA with constant flanks, human and mouse sites, ends assumed
Reference: input RNA pool
Direction: higher = stronger binding
Measurement: bound/input enrichment
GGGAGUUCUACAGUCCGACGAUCGCUGCAUCUGACAGAGCAAGUAGACGAGAGGCUGGGUGGUGGGCUCCGGCCAGCCCGAGUCUUAGAGCUGGUGGUUGGUUAUAUCUGGUGCCUGUCUCGAGGAGGGCUUGAGACACAGUGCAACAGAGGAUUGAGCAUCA: 0.574 ratio
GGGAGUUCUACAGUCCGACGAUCGCCACUAUCAUCCUCCUUCUGCUUGCACAAGUUUCCUGGGCUGGACCGUUUCAACAGAGAGGCUUAUUUGACUUUAUGCUAGAAGAUGAGGCUUCUGGGAUAGGCCCAGAAGUUCCUGAUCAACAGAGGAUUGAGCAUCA: 0.202 ratio
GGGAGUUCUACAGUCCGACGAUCAAGGAGUAAGCAAAUUGGAGGUGGAGGGUGGGCCUCACCUUAUACUACAAUCAAACCUUGUAGUUUGGGGUGUUUUGUUUGUUUGUUUUGUAUUGUAUUGUUUUUAAACAAGUCUAGCCACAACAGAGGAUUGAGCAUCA: 0.452 ratio
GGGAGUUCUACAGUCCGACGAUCUGUGACUGUGAGGAGGGUGGGAGUGUGGAUGGGGAGGAAGGUUCUAGGCUCUCUUAUUUUUCUCAUUUCCCAAUGCCUCUCUGUGGGAGAGCUCCAUGCCAGUUUUCACCACGCUCAGGCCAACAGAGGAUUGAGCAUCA: 0.162 ratio
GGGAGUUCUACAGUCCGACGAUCAGGCUCAUCCAGCCCUAUAUCCACAACUACUCCUGGCUGCUCUUUGCUGCCCUGGCUCUCUAUAGUGCCCACCUGACCAGUACAGAGCAGGUGGAUGGGGAGCAGCUGGACCCCCAGGCCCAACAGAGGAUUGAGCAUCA: 0.0949 ratio
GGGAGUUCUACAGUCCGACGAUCGACAAAGCCUUCCAGAAAGAGAUAGGCCUCAAGACUCUGGUGUUCAAAGCUUACAGGUGUUUUUUCAUUGCUCAGUCCUAUGUGCUGGUGAAGAAGUGGAGCGAAGCCCUUGUCCUGUAUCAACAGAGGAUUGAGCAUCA: 0.246 ratio
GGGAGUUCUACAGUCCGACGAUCGAAUAGGUUGGGUAUAACACCUGCAGUUUCCAGCUCUAUGAAACAGGAGAGAGAGAGAAAUAGCAGUUUGACUUGACUGUGGAAGAUGAUGGUUGCAUGCUUCUCAUUUGUACGUUUCCACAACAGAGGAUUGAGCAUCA: 0.257 ratio
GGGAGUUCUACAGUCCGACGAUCGGUGGGGUGGGCAUGGGGUGGGGGUAUGGGAACAGUUGGAGGAAUGGGAUAUCUGGGGAUAAUUUUAAAGGAUUACAUGUUAUGUAAAUUUUUAUGUGACUGACAUGGAGCCUGGAUGACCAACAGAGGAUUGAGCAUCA: 2.64 ratio

Sample 5
Target: Phosphate system positive regulatory protein PHO4, full length, GST-tagged (PHO4, Saccharomyces cerevisiae, UniProt P07270, residues 1-312)
Method: competition protein-binding microarray
Molecule type: double-stranded DNA, one strand shown
Sample: in vitro
Concentration: 2 µM
Setting: whole 60-bp probe, lowest competitor level
Added: Cbf1 competitor, 0.05 µM
Direction: higher = stronger binding
Measurement: fluorescence intensity
Target sequence (chain): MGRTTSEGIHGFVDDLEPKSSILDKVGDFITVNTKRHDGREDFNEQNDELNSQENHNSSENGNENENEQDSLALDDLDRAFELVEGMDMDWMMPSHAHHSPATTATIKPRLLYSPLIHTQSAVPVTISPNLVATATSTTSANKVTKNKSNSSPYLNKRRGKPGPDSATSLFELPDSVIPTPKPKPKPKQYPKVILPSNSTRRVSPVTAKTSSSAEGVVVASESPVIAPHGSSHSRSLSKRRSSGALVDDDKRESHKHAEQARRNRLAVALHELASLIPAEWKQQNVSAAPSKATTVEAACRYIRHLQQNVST
CGGGGTTAAGTTTGAGCGGTGGGTGGCTTGCAGCAGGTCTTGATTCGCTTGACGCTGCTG: 4070 a.u.
CGTCCTAGTGATTTTCACGTGTTCTCCATGAGGAAGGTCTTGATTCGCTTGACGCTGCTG: 14700 a.u.
TTACAAATGGTTCAGATCATGCAGATGCAGCACTTGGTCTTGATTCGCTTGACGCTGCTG: 5170 a.u.
TTAATATTATACGAAAACGTGCAAAACGGCACAAACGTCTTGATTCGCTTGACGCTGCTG: 12300 a.u.
GGAAACGACTGCGAACACGTGCAGATGCAAAGGACAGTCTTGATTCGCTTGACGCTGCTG: 15100 a.u.
TGCGCAACAACTTGGGGAGTGGGTGTATGTCTAGAAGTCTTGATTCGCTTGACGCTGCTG: 4480 a.u.
CGGGGTTAAGTTTTTCACGTGCCATGCTTGCAGCAGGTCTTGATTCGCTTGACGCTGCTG: 13700 a.u.
AAGCGAGGCGCAGATCTCGTGGTGAGTGATATAGTGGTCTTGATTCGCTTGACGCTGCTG: 8910 a.u.

Sample 6
Target: Replicase polyprotein 1ab, main protease (rep, Severe acute respiratory syndrome coronavirus 2, UniProt P0DTD1)
Effect on: enzyme activity
Action: inhibitor
Concentration: 20 µM
Setting: hit confirmation, no DTT
Measurement: inhibition
N=C(N)NN=C1C=CC(=NNC(N)=S)C=C1: 93.3%
O=C(O)c1cc(O)c(O)c(O)c1: 58.4%
CCCCCCNC(=O)n1cc(F)c(=O)[nH]c1=O: 111%
CCCCCCCCCCCCCCCC[n+]1ccn(Cc2ccccc2)c1C: 77.8%

Some of these lines once more (sample 1):
NC(=O)c1cccc(-c2cccc(OC(=O)NC3CCCCC3)c2)c1: 0.13%
N#Cc1c(Oc2ccc(F)c(NC(=O)Cc3cccc(C(F)(F)F)c3)c2)ccc2nc(NC(=O)C3CC3)sc12: -1.55%
Cc1nccn1CCC(C(N)=O)(c1ccccc1)c1ccccc1: -21.1%
